Assay results from different studies.
Each line is one published result; not all experiments were run side by side. Several values in a cell are separate wells, animals, samples, runs or records. ± gives the spread as reported.

The potassium change of `C[C@H]1C[C@@H](N2C(=N)N[C@](C)(c3cccc(NC(=O)c4cccc(C#N)c4)c3Cl)CC2=O)CCO1` is reported as -8% (rat; 1000 mg/kg, every other day).
For `O[C@H]1CCCN[C@@H]1CCCn1cnc2c(Cl)c(Cl)ccc21`, “Cmax,ss geometric LS mean” read 265 ng/mL (healthy volunteers, plasma; oral, 150 mg twice daily, alone).
For `O=S(=O)(Nc1ccccc1)c1ccc(NC(=S)Nc2ccccc2)cc1`, “blood cell fraction” read 19.6% (item: NE%; male mouse, blood; oral, 80 mg/kg daily, 14 days).
Under “drug-related Headache incidence”, `C[C@]1(CO)Cc2ncn(-c3ccc(C#N)c(Cl)c3)c2C(=O)O1` is recorded as 0% (Japanese subjects; 3 mg single dose).
The Cmax of `CN1CCN(S(=O)(=O)c2cc([N+](=O)[O-])ccc2N(CCOS(C)(=O)=O)CCOS(C)(=O)=O)CC1` is reported as 1550 nM (naive female NSG mice, plasma; intraperitoneal, 5 mg/kg).
Under “Dizziness incidence, grade ≥3”, `CCN1CCN(Cc2ccc(Nc3ncc(F)c(-c4cc(F)c5nc6n(c5c4)[C@H](C)CCC6)n3)nc2)CC1` is recorded as 0% (advanced solid tumour patients; dose not given, Phase Ia monotherapy).
The half-life of `CC/C(=C(\c1ccccc1)c1ccc(OCCN(C)C)cc1)c1ccccc1` is reported as 11.2 h (CD-1 mouse, male, plasma; intraperitoneal, 10 mg/kg).
`Cc1cccc(Cn2nc(C3CC3)c3c(NC(=O)c4cnc5cc(OCCN6CCN(C)CC6)ccn45)cccc32)n1`: “all-cause adverse events” 33.3% (CTCAE v4.03, item: AST increased; pancreatic ductal adenocarcinoma patients; oral, dose not given, together with: pembrolizumab IV every 3 weeks).
`Clc1ccc(-c2ccccc2)cc1` has a serum Chloride of 77 ± 3 mmol/L (rat Sprague-Dawley female, serum; inhalation, 35 µg/rat, 24 h).
For `NCCCC[C@@H]1NC(=O)[C@@H](Cc2c[nH]c3ccccc23)NC(=O)[C@H](c2ccccc2)NC(=O)[C@@H]2C[C@@H](OC(=O)NCCN)CN2C(=O)[C@H](Cc2ccccc2)NC(=O)[C@H](Cc2ccc(OCc3ccccc3)cc2)NC1=O`, “subjects with adverse event Vomiting” read 11% (healthy human volunteers; 600 µg twice daily).
Under “participants with adverse event”, `COc1ccc(C[C@@H]2NC(=O)[C@H]([C@@H](C)O)NC(=O)[C@@H]3[C@@H]4CCN3C(=O)[C@@H]3Cc5cn(c6ccc(F)cc56)CCCCCCN(Cc5ccc(cc5)CCNC(=O)[C@]5(C)CCCN5C2=O)C(=O)CCC(=O)N[C@@H](C)C(=O)N[C@H](CNC(=O)CCCCC[N+](C)(C)C)C(=O)N[C@@H](Cc2cccc(c2)CNC(=O)CO4)C(=O)N3)cc1` is recorded as 3.2% (item: Arthralgia; humans; concentration not given, Study-003).
`COc1cc2c(Oc3ccc4[nH]c(C)cc4c3F)ccnc2cc1OCC1(N)CC1`: “grade 1 or 2 ALT elevation” 26.5% (paediatric recurrent refractory sarcoma; concentration not given, whole group).
`CCN(CCO)CCCC(C)Nc1ccnc2cc(Cl)ccc12` (stereo not shown): “patients with adverse event” 33% (human, newly diagnosed glioblastoma; oral, 400 mg/dose, WBC decrease grade 4, with RT and TMZ).
For `COc1ccc(CCC2CCCC(CCc3ccc(OC)cc3)N2C[C@@H](O)CO)cc1.Cl` (stereo in doubt), “resting membrane potential change” read 1.6 ± 1.7 mV (rabbit Purkinje fibres; 0.3 µM, cycle length 0.5 s; relative to: baseline).
For `CCc1ccc(CC/C=C/c2ccc3c(c2)C(=O)CC3)cc1`, the total bilirubin was 1.43 µM (Sprague-Dawley rat, male, serum; oral, 30 mg/kg/day, 14 days).
For `Cc1cc(C)c(CNC(=O)c2cc(Cl)c3c(c2C)O[C@@](C)([C@H]2CC[C@H](N(C)C)CC2)O3)c(=O)[nH]1`, “incidence of blood LDH increased” read 0% (relapsed/refractory NHL patients; dose not given, trial, safety set, treatment-related TEAE grade 5).
For `CC(=O)c1c(C)c2cnc(Nc3ccc(C4CCN(CCS(C)(=O)=O)CC4)cn3)nc2n(C2CCCC2)c1=O`, the AUC(0-inf) was 1110 ng·h/mL (human, dose-escalation trial, plasma; oral, 25 mg twice daily, day 21, multiple doses).
`N#C[C@H](O[C@@H]1O[C@H](CO[C@@H]2O[C@H](CO)[C@@H](O)[C@H](O)[C@H]2O)[C@@H](O)[C@H](O)[C@H]1O)c1ccccc1` gave a Tmax of 0.48 ± 0.39 h (Sprague Dawley rat, plasma; oral, 3.34 g lyophilized powder/kg, low dose).
`CC(C)[C@@H]1NC(=O)CNC(=O)[C@H](CC(N)=O)NC(=O)[C@H](CCCNC(=N)N)NC(=O)[C@H](Cc2ccc(O)cc2)NC(=O)[C@H](C(C)C)NC(=O)[C@@H](NC(=O)[C@@H](NC(=O)[C@H](CC(N)=O)NC(=O)[C@H](Cc2c[nH]c3ccccc23)NC(=O)[C@H](C)NC(=O)[C@H](Cc2ccccc2)NC(=O)CN)C(C)C)CSSC[C@@H](C(=O)N[C@@H](Cc2cnc[nH]2)C(=O)N[C@@H](CCCNC(=N)N)C(=O)N[C@@H](CCCNC(=N)N)C(=O)N[C@@H](C)C(=O)N[C@@H](CC(N)=O)C(N)=O)NC(=O)[C@H](C(C)C)NC(=O)[C@H](CCCNC(=N)N)NC1=O` gave a remaining peptide of 23.7% and 22.2% and 28.7% (HPLC; mouse kidney homogenate; 2560 µM, 6.00 h, 37 °C, 50 mg/mL tissue).
`COc1ccc([C@@H](O)c2cc(-c3ncnc4cc(N5CCOCC5)ccc34)c(F)cc2Cl)nn1` — result for “vascular disorders incidence”: 1% (patients, advanced solid tumours; oral, 400 mg twice daily, treatment-emergent, together with: avelumab; relative to: patients).
`CN1CC[C@@H](c2c(O)cc(O)c3c(=O)cc(-c4ccc(C(F)(F)F)cc4Cl)oc23)[C@@H]1CO`: “patients with adverse event” 0% (item: Sepsis; relapsed B-cell malignancies; oral, 100 mg, grade 3-4, intermittent dosing).
With `CC(C)[C@H](N)C(=O)NCCCS(=O)(=O)O` the plasma concentration was 152 ng/mL (human; oral, 265 mg twice daily, 6 h post-dose, steady state, week 65).
`O=C(Nc1ccccc1)C1CCN(C(=O)Oc2cccnc2)CC1`: “subjects with Phlebitis adverse event” 7.1% (adverse event reporting; healthy women; oral, 60 mg).
`COc1ncccc1-c1cnn2ccc(N3CCN(C(=O)OC(C)C)CC3)nc12` gave a drug concentration of 1700 nM (mouse nerve ligation model, plasma; oral, 10 mg/kg, 120 min after last dose, repeat dosing day 3).
`O=C1Nc2cc3[nH]nc(-c4ccncc4)c3cc2CN1Cc1ccccc1` — result for “patients with TEAE”: 12% (item: Dyspnea; patients with advanced solid tumours; intravenous, dose not given, all schedules).
For `CCN1[C@@H](C(=O)NC23CCC(C(=O)O)(CC2)CC3)[C@H](c2cccc(Cl)c2F)[C@]2(C(=O)Nc3cc(Cl)ccc32)C12CCCCC2`, the Fatigue incidence was 12.5% (patients with advanced solid tumours; oral, 150 mg).
`CO[C@H]1C[C@@H]2CC[C@@H](C)[C@@](O)(O2)C(=O)C(=O)N2CCCC[C@H]2C(=O)O[C@H]([C@H](C)C[C@@H]2CC[C@@H](OC(=O)NCCOCCOCCOCCOCCOCCOCCOCCOCCC(=O)N3CCc4cc(Cn5nc(-c6ccc7oc(N)nc7c6)c6c(N)ncnc65)ccc4C3)[C@H](OC)C2)C[C@@H](O)[C@H](C)/C=C(\C)[C@@H](O)[C@@H](OC)C(=O)[C@H](C)C[C@H](C)/C=C/C=C/C=C/1C` — result for “incidence of SAE”: 0% (advanced solid tumour patients; intravenous, 1.6 mg/3 mg weekly, grade ≥3).
For `CC(C)c1nc(N(C)S(C)(=O)=O)nc(-c2ccc(F)cc2)c1/C=C/[C@@H](O)C[C@@H](O)CC(=O)O`, “incidence of blurred vision” read 3.6% (healthy human subjects; oral, dose not given, study CL-0537 safety set).
Under “brain to plasma ratio”, `CCC[C@@](N)(CO)CCc1ccc(OCCCCCC(C)C)cc1` is recorded as 36 (male Sprague-Dawley rat; oral, 30 mg/kg, 6 h; relative to: brain over plasma).
`CC(C)[C@H](C(=O)O[C@H](C#N)c1cccc(Oc2ccccc2)c1)c1ccc(Cl)cc1`: “enzyme contribution to clearance” 0.93% (item: CYP2C8; human, age 5 years).
`O=C(c1ccc(F)c(F)c1Nc1ccc(I)cc1F)N1CC(O)([C@@H]2CCCCN2)C1` — result for “patients with treatment-related SAE”: 4% (human patients; oral, dose not given, dose escalation, suspension).
Under “grade 3-4 TRAE incidence”, `COc1ccc(-c2c(-c3ccc(C#N)c(F)c3)nc(N3CCC(N)CC3)n(C)c2=O)cc1F` is recorded as 0% (item: decreased appetite; relapsed/refractory MZL patients; oral, 60 mg, dose expansion).
The decreased appetite of `CCCCCCCCCCCCCCCC(=O)N[C@@H](CCC(=O)NCCCC[C@H](NC(=O)[C@H](CC(=O)O)NC(=O)[C@H](CO)NC(=O)[C@@H](NC(=O)[C@H](Cc1ccccc1)NC(=O)[C@@H](NC(=O)CNC(=O)[C@H](CCC(N)=O)NC(=O)[C@H](CO)NC(=O)[C@@H](N)Cc1c[nH]cn1)[C@@H](C)O)[C@@H](C)O)C(=O)N[C@@H](CO)C(=O)N[C@@H](CCC(=O)O)C(=O)N[C@@H](Cc1ccc(O)cc1)C(=O)N[C@@H](CC(C)C)C(=O)N[C@@H](CC(=O)O)C(=O)N[C@@H](CO)C(=O)N[C@@H](CCC(=O)O)C(=O)N[C@@H](CCCNC(=N)N)C(=O)N[C@@H](C)C(=O)N[C@@H](CCCNC(=N)N)C(=O)N[C@@H](CC(=O)O)C(=O)N[C@@H](Cc1ccccc1)C(=O)N[C@H](C(=O)N[C@@H](C)C(=O)N[C@@H](Cc1c[nH]c2ccccc12)C(=O)N[C@@H](CC(C)C)C(=O)N[C@@H](CCC(=O)O)C(=O)N[C@@H](C)C(=O)NCC(=O)NCC(=O)O)C(C)C)C(=O)O` is reported as 0% (human, CrCl < 20 mL/min; sc, 100 µg single dose).
For `C[C@@H](NC(=O)N1C(=O)[C@H](Cc2ccnc(N)c2)[C@H]1C(=O)O)C1CCCCC1`, the urine leukocyte-positive was 0% (healthy Chinese adults; continuous intravenous infusion, 1.0 mg/kg/h, 5.0 days).
`C[C@]1(O)C[C@@](N)(c2ccc(-c3nc4n(c3-c3ccccc3)COc3ccncc3-4)cc2)C1`: “patients with decreased appetite TEAE” 42.9% (human, advanced or metastatic solid tumours; dose not given, intermittent dose escalation total).
Under “mean fraction excreted in urine”, `N=C(N)NCCC[C@@H](NC(=O)[C@@H](N)Cc1ccccc1)C(=O)N[C@@H](Cc1ccccc1)C(=O)N[C@@H](CCCCN)C(N)=O` is recorded as 2.22% (LC-MS; human; 15 mg, 23.83 h).
`N#C/N=C1\SCCN1Cc1ccc(Cl)nc1` gave a concentration of 0.19 mg/kg dry soil (soil; 28 days, nominal 10).

Repeated from above:
For `O=S(=O)(Nc1ccccc1)c1ccc(NC(=S)Nc2ccccc2)cc1`, “blood cell fraction” read 19.6% (item: NE%; male mouse, blood; oral, 80 mg/kg daily, 14 days).
Under “drug-related Headache incidence”, `C[C@]1(CO)Cc2ncn(-c3ccc(C#N)c(Cl)c3)c2C(=O)O1` is recorded as 0% (Japanese subjects; 3 mg single dose).
The Cmax of `CN1CCN(S(=O)(=O)c2cc([N+](=O)[O-])ccc2N(CCOS(C)(=O)=O)CCOS(C)(=O)=O)CC1` is reported as 1550 nM (naive female NSG mice, plasma; intraperitoneal, 5 mg/kg).
